Results collected from several papers.
Lines come from different studies, so protocols differ.

CCCCCCCCCCCCCCCCCCCCCCSCC1OC(OC2C(N)CC(N)C(OC3OC(CN)C(O)CC3N)C2O)C(O)C(N)C1O (stereo not shown)
MIC (Listeria monocytogenes; ATCC 19115): 18.8 µg/mL

CC(C)[C@H](NC(=O)[C@H]1NC(=O)[C@H](CO)NC(=O)[C@H](CC(N)=O)NC(=O)[C@@H](N)Cc2c[nH]c3cc(ccc23)C1C(N)=O)C(=O)N[C@H]1Cc2cn(cn2)C(c2ccc(O)cc2)[C@@H](C(=O)N[C@@H](CCCNC(=N)N)C(=O)N[C@@H](Cc2ccccc2)C(=O)O)NC(=O)[C@H](CO)NC1=O (stereo partly shown)
MIC (Veillonella ratti; KLE 2365): 16 µg/mL

CC[C@H](C)[C@H](NC(=O)[C@H](CO)NC(=O)[C@H](CO)NC(=O)[C@H](Cc1ccccc1)NC(=O)CN)C(=O)N[C@@H](Cc1ccccc1)C(=O)N[C@@H](CCCNC(=N)N)C(=O)NCC(=O)N[C@H](C(=O)N[C@@H](C)C(=O)N[C@@H](CCCCN)C(N)=O)C(C)C
MIC (Escherichia coli; ATCC 8739; with: 150 mM NaCl): > 128 µM

COc1ccc(C2=[N+]([O-])c3ccccc3N3CCN=C23)cc1
MIC (Peptostreptococcus anaerobius): 0.25 µg/mL

CN[C@@H]1[C@H](O)[C@H](NC)[C@H]2O[C@]3(O)[C@H](O[C@@H]2[C@H]1O)O[C@H](C)C[C@]3(O)CNCc1ccc(F)cc1
MIC (Listeria monocytogenes): > 200 µg/mL

COC1C=COC2(C)Oc3c(C)c(O)c4c(c3C2=O)C2=NC3(CCN(CC(C)C)CC3)NC2=C(NC(=O)C(C)=CC=CC(C)C(O)C(C)C(O)C(C)C(OC(=O)Nc2cscn2)C1C)C4=O (stereo not shown)
MIC (Mycobacteroides abscessus; ATCC 19977 arr knockout): 0.021 µM

[O-][N+]1=C(c2ccsc2)C2=NCCCN2c2ccccc21
MIC (Bacteroides ovatus; ATCC 84834): 1 µg/mL

CC(C)C[C@H](NC(=O)[C@H](CC(C)C)NC(=O)[C@H](C)NC(=O)[C@H](NC(=O)[C@H](CO)NC(=O)[C@@H](CCCCN)NC(=O)[C@@H](CC(C)C)NC(=O)[C@@H](N)Cc1ccccc1)[C@@H](O)C(N)=O)C(=O)O
MIC (Bacillus subtilis Bacillus subtilis; ATCC 6051; tested as TFA salt): > 32 µg/mL

[O-][N+]1=C(c2ccccc2)C2=NCCN2c2ccccc21
MIC (Fusobacterium nucleatum; microbial growth; ATCC25586): ≤ 0.06 µg/mL

CC[C@H](C)[C@@H]1NC(=O)CNC(=O)[C@H](CCCCN)NC(=O)[C@H](C)NC(=O)[C@H](CCC(=O)O)NC(=O)[C@H](Cc2ccccc2)NC(=O)[C@H](CO)NC(=O)[C@H](CC(C)C)NC(=O)[C@H](C(C)C)NC(=O)[C@H](CC(=O)O)NC(=O)[C@@H](NC(=O)[C@@H](NC(=O)[C@@H](N)C(C)C)[C@@H](C)O)CSSC[C@@H]2NC(=O)[C@H](CO)NC(=O)CNC(=O)CNC(=O)[C@H](CCCCN)NC(=O)[C@H](CCCCN)NC(=O)[C@H](CCCNC(=N)N)NC(=O)[C@H](CC(C)C)NC(=O)[C@H](C)NC(=O)[C@H]([C@@H](C)CC)NC(=O)[C@H](C)NC(=O)[C@H](Cc3c[nH]cn3)NC(=O)[C@H](CC(C)C)NC(=O)[C@H](C)NC(=O)[C@H](CSSC[C@@H](C(=O)N[C@H](C(=O)N[C@@H](C)C(=O)N[C@@H](CCCNC(=N)N)C(=O)N[C@@H](CC(N)=O)C(=O)O)C(C)C)NC(=O)[C@H](C(C)C)NC(=O)CNC(=O)[C@H](CC(N)=O)NC(=O)[C@H](CCC(N)=O)NC2=O)NC(=O)[C@H](C)NC(=O)[C@H](CO)NC(=O)[C@H](Cc2c[nH]cn2)NC(=O)[C@H](CC(N)=O)NC(=O)[C@H](C(C)C)NC(=O)[C@H](C)NC1=O
MIC (Malassezia furfur; broth microdilution; KCTC 7744; 32 °C, YM broth with 1% olive oil): 25 µM

For quick reference, copied from above:
CC(C)[C@H](NC(=O)[C@H]1NC(=O)[C@H](CO)NC(=O)[C@H](CC(N)=O)NC(=O)[C@@H](N)Cc2c[nH]c3cc(ccc23)C1C(N)=O)C(=O)N[C@H]1Cc2cn(cn2)C(c2ccc(O)cc2)[C@@H](C(=O)N[C@@H](CCCNC(=N)N)C(=O)N[C@@H](Cc2ccccc2)C(=O)O)NC(=O)[C@H](CO)NC1=O (stereo partly shown)
MIC (Veillonella ratti; KLE 2365): 16 µg/mL
